Assay results pooled from the literature.
Lines come from different studies, so protocols differ. Values joined by “and” are separate records of one study, mostly repeats; a detail may differ. Numbers after ± are the reported error. ≈ marks a conversion by molar mass, not a printed value.

CO[C@H]1/C=C/O[C@@]2(C)Oc3c(C)c(O)c4c(O)c(c(/C=N/N5CCN(C)CC5)c(O)c4c3C2=O)NC(=O)/C(C)=C\C=C\[C@H](C)[C@H](O)[C@@H](C)[C@@H](O)[C@@H](C)[C@H](OC(C)=O)[C@@H]1C  cell perimeter (Bacillus subtilis; bacterial cytological profiling; ATCC 6633; concentration not given): 4.95 µm and 5.03 µm and 4.91 µm
CCn1c(=O)c(-c2cc[nH]n2)cc2c(C)nc(N)nc21  perivascular cuffing score (enterovirus A71; suckling mouse, EV71-infected, brain; 0.25 mg/kg; direction not given): 0
CN[C@H](CC(C)C)C(=O)N[C@H]1C(=O)N[C@@H](CC(N)=O)C(=O)N[C@H]2C(=O)N[C@H]3C(=O)N[C@H](C(=O)N[C@H](C(=O)O)c4cc(O)cc(O)c4-c4cc3ccc4O)[C@H](O)c3ccc(c(Cl)c3)Oc3cc2cc(c3O[C@@H]2O[C@H](CO)[C@@H](O)[C@H](O)[C@H]2O[C@H]2C[C@](C)(N)[C@H](O)[C@H](C)O2)Oc2ccc(cc2Cl)[C@H]1O  MIC90 (Streptococcus pyogenes; erythromycin-sensitive, 21 strains): 0.5 µg/mL (≈ 0.345 µM)
CC[C@H](C)[C@H](N)C(=O)OC[C@H]1O[C@@](C#N)(c2ccc3c(N)ncnn23)[C@H](O)[C@@H]1O  EC50 (human respiratory syncytial virus; viral replication, viral protein ELISA; HEp-2, A2; 5 days): 1460 ± 219 nM
COC(=O)[C@@H](CCSC)NCc1cc2ccccc2nc1SC  growth (Pseudomonas aeruginosa; 8 µg/mL, together with: pentamidine 50 µM; relative to: control): 101%
CC1(C)S[C@@H]2[C@H](NC(=O)[C@H](N)c3ccccc3)C(=O)N2[C@H]1C(=O)O  DNA width (Bacillus subtilis; bacterial cytological profiling; ATCC 6633): 0.72 µm and 0.71 µm and 0.59 µm
COc1cc([C@@H]2c3cc4c(cc3[C@H](O)[C@H]3COC(=O)[C@H]23)OCO4)cc(OC)c1OC  viral entry inhibition (Dengue virus type 2; plaque; 0.1 µM, 24 h pretreatment): inactive
Cc1cc(OC(C)C)ccc1C(=O)C(C)(C)NC(=O)c1sccc1C  inhibition (Botrytis cinerea; mycelial growth; B05.10; 0.1 µg/mL): 94.5 ± 6.3%
N=C(N)c1cccc(OCc2ccc(COc3cccc(C(=N)N)c3)cc2)c1  MIC in combination (Escherichia coli; BW25113; concentration not given, lowest-FICI combination, together with: novobiocin): 50 µg/mL
O=c1cc(-c2ccc(O)c(-c3c(O)cc(O)c4c(=O)cc(-c5ccc(O)cc5)oc34)c2)oc2cc(O)cc(O)c12  EC50 (hepatitis C virus; viral replication; Huh-Luc/neo-ET replicon cells): > 50000 nM
CC1(C)S[C@@H]2[C@H](NC(=O)[C@H](N)c3ccccc3)C(=O)N2[C@H]1C(=O)O  MIC (Pseudomonas aeruginosa; clinical isolate RKI-No_481/15): > 16 µg/mL
O=C(O)c1cn(C2CC2)c2cc(N3CCNCC3)c(F)cc2c1=O  cell area (Bacillus subtilis; bacterial cytological profiling; ATCC 6633; concentration not given): 4.51 µm² and 4.25 µm² and 4.81 µm²
N#CC(=C1C=CC(=NOC(=O)OCc2ccccc2)C=C1)c1ccccc1  MFC (Pichia norvegensis; broth dilution; ATCC 96139; 48 h, 37 °C): 128 µg/mL (≈ 359 µM)
Cc1ccc(NC(=O)N2Cc3[nH]cnc3C[C@H]2c2nc(-c3ccc4c(c3)OCO4)no2)cc1  median lifespan (Caenorhabditis elegans; N2; 6.25 µM): 21 days
Nc1nc(-c2ccccc2)nc2[nH]nc(Nc3ccc(C(F)(F)F)cc3)c12  clinical score (coxsackievirus B3; 31-1-93, NMRI mice, CVB3 chronic myocarditis; oral, 100 mg/kg twice daily, day 2, dosed days 1 to 7, score scale 0 to 7; direction not given): 0
CCc1nc2[nH]c(=O)n(O)c(=O)c2s1  growth inhibition (Amaranthus retroflexus; 750 g/ha, 21 days, post-emergence, glasshouse pot): 0%
CCCCCCCCCC(=O)N[C@@H](Cc1c[nH]c2ccccc12)C(=O)N[C@H](CC(N)=O)C(=O)N[C@@H](CC(=O)O)C(=O)N[C@@H]1C(=O)NCC(=O)N[C@@H](CCCN)C(=O)N[C@@H](CC(=O)O)C(=O)N[C@H](C)C(=O)N[C@@H](CC(=O)O)C(=O)NCC(=O)N[C@H](CO)C(=O)N[C@@H]([C@H](C)CC(=O)O)C(=O)N[C@@H](CC(=O)c2ccccc2N)C(=O)O[C@@H]1C  MIC (Staphylococcus aureus; SH1000; together with: phosphatidylglycerol, molar ratio 2): 8 µg/mL
CC(C)C[C@H](NC(=O)OCc1ccccc1)C(=O)N[C@H](C=O)C[C@@H]1CCCNC1=O  EC90 (enterovirus A71; viral replication, RT-qPCR; RD; 72 h): 2840 ± 40 nM
N=C(N)c1ccc(OCc2cccc(COc3ccc(C(=N)N)cc3)c2)cc1  MIC of compound in combination (Escherichia coli; checkerboard; mcr-3 polymyxin-resistant; concentration not given, together with: rifampicin): 50 µg/mL
CN(C)[C@@H]1C(O)=C(C(N)=O)C(=O)[C@@]2(O)C(O)=C3C(=O)c4c(O)cccc4[C@@](C)(O)[C@H]3C[C@@H]12  DNA length (Bacillus subtilis; bacterial cytological profiling; ATCC 6633): 1.86 µm and 1.7 µm and 1.64 µm
Cc1nc2[nH]c(=O)n(O)c(=O)c2s1  growth inhibition (Amaranthus retroflexus; 1500 g/ha, 21 days, pre-emergence, glasshouse pot): 30%
CC(C)C(=O)OC[C@H]1O[C@@H](n2ccc(NO)nc2=O)[C@H](O)[C@@H]1O  EC50 (human respiratory syncytial virus; viral replication, viral protein ELISA; HEp-2, A2; 5 days): > 10000 nM
[H]/N=C(\N/C(=N/[H])NCCCCCCNC(=N)NC(=N)Nc1ccc(Cl)cc1)Nc1ccc(Cl)cc1  zone of inhibition (Streptococcus sobrinus; BHI agar; 500 µg/disc): 19.3 ± 1.2 mm
Cc1ccc(S(=O)(=O)Nn2c(N)c(C#N)cc(-c3nc4ccccc4s3)c2=O)cc1  viral load reduction (hepatitis C virus; qRT-PCR; Huh7.5, genotype 4; concentration not given): 10%
NC(=O)C[C@H](N)C(=O)O  EC50 (Bacillus subtilis; chemotaxis pathway, FRET; 168): 950 nM
O=C1OC[C@H]2OC(O)[C@H](O)[C@@H](O)[C@@H]2OC(=O)c2cc(O)c(O)c(O)c2-c2c(O)c(O)c3oc(=O)c4c(c(O)c(O)c5oc(=O)c2c3c54)-c2c1cc(O)c(O)c2O (mixture of isomers)  initial rate of glycolytic pH drop (Streptococcus sobrinus; MIC, first 15 min, together with: glucose 1%): 0.033 pH units/min
CCCCCCCCC(=O)OC[C@H]1O[C@@](C#N)(c2ccc3c(N)ncnn23)[C@H](O)[C@@H]1O  EC50 (human respiratory syncytial virus; viral replication, viral protein ELISA; HEp-2, A2; 5 days): 490 ± 57 nM
CC(C)n1ncc2c(C(=O)NCC3(C)CNC3)cc(C3CC3)nc21  plaque area (Enterovirus D68; viral replication; RD, US/MO/14-18947; 0.01 µM; relative to: untreated): 102% and 114%
O=c1[nH]c2ncsc2c(=O)n1O  growth inhibition (Amaranthus retroflexus; 750 g/ha, 21 days, post-emergence, glasshouse pot): 34.5%
C[C@@H]1O[C@@H](OC[C@H]2O[C@@H](Oc3c(-c4ccc(O)c(O)c4)oc4cc(O)cc(O)c4c3=O)[C@H](O)[C@@H](O)[C@@H]2O)[C@H](O)[C@H](O)[C@H]1O  inhibition zone diameter (Streptococcus sobrinus; 500 µg/disc): 14.5 ± 1.5 mm
C#CCON=C1C=CC(=C(C#N)c2ccccc2)C=C1  MFC (Pichia norvegensis; broth dilution; ATCC 96139; 48 h, 37 °C): 64 µg/mL (≈ 246 µM)
COc1cc(C#CC(=O)c2ccccc2)ccc1O  biofilm inhibition (Pseudomonas aeruginosa; PAO1; 10 µM, static conditions): 50%
O=c1oc2c(O)c(O)cc3c(=O)oc4c(O)c(O)cc1c4c23  inhibition zone diameter (Streptococcus sobrinus; 500 µg/disc): 17.2 ± 1.3 mm
Cc1ccc(N(c2ccc(NC(=O)CN(C)c3ccccc3N3CCCC3=O)cc2)C(C)C)cc1  time to complete clearance (Plasmodium falciparum; 3D7 asexual blood stage; 10 x EC50): 96 h
O=C(O[C@@H]1O[C@@H]2COC(=O)c3cc(O)c(O)c(O)c3-c3c(cc(O)c(O)c3O)C(=O)O[C@H]([C@H]1O)[C@@H]2O)c1cc(O)c(O)c(O)c1  inhibition zone diameter (Streptococcus sobrinus; 500 µg/disc): 15.5 ± 1.5 mm
CC(=O)NC[C@H]1CN(c2ccc(N3CCOCC3)c(F)c2)C(=O)O1  MIC50 (Streptococcus pneumoniae; penicillin-resistant, 10 isolates; serum 25%): 1 µg/mL (≈ 2.96 µM)

A few entries again:
O=C(O[C@@H]1O[C@@H]2COC(=O)c3cc(O)c(O)c(O)c3-c3c(cc(O)c(O)c3O)C(=O)O[C@H]([C@H]1O)[C@@H]2O)c1cc(O)c(O)c(O)c1  inhibition zone diameter (Streptococcus sobrinus; 500 µg/disc): 15.5 ± 1.5 mm
CN(C)[C@@H]1C(O)=C(C(N)=O)C(=O)[C@@]2(O)C(O)=C3C(=O)c4c(O)cccc4[C@@](C)(O)[C@H]3C[C@@H]12  DNA length (Bacillus subtilis; bacterial cytological profiling; ATCC 6633): 1.86 µm and 1.7 µm and 1.64 µm
CC(C)C[C@H](NC(=O)OCc1ccccc1)C(=O)N[C@H](C=O)C[C@@H]1CCCNC1=O  EC90 (enterovirus A71; viral replication, RT-qPCR; RD; 72 h): 2840 ± 40 nM
O=c1[nH]c2ncsc2c(=O)n1O  growth inhibition (Amaranthus retroflexus; 750 g/ha, 21 days, post-emergence, glasshouse pot): 34.5%
[H]/N=C(\N/C(=N/[H])NCCCCCCNC(=N)NC(=N)Nc1ccc(Cl)cc1)Nc1ccc(Cl)cc1  zone of inhibition (Streptococcus sobrinus; BHI agar; 500 µg/disc): 19.3 ± 1.2 mm
